Experimental data gathered from unrelated publications.
A part holds a random share of what one study measured.

Study 1 — technique: RNA Bind-n-Seq; molecule type: RNA; medium: in vitro; concentration: 200 nM; setting: whole 134-nt RNA, ends assumed; together with: 150 mM KCl; relative to: input library; direction: higher = stronger binding
Target: Fragile X messenger ribonucleoprotein 1, C-terminal low-complexity region (Fmr1, Mus musculus, UniProt P35922)
Shared flanks, not repeated: GGGAGUUCUACAGUCCGACGAUC … UGGAAUUCUCGGGUGUCAAGG
| Oligonucleotide | log2 enrichment |
| --- | --- |
| GCAGGAAGUAAAUACAAAUGGAAAUGCUUCGGAUAGUGGCAGGGGUGGGGGUUGCUAAGGAAAGGGUGGGAUGGGAGUGGGUAAAGAGUU | 0.462 |
| ACCAUGCAGGUGGGCAUCUUUGGGAAGUGGGGCAAGGGGGGGAUAGGGAGGGGGGUAACACAAAGGGAACAGGUGGUCCCAGGUCGUUUC | 0.543 |
| CCUGUGCUACACAUCGUAUGUACCGAAUCAAACCCCCCCAAAUUUUUUUAAAUUUUUAAAAAAGUAUUAUGUUACGCCGUUCGGAUCUGC | 0.139 |
| UCAAGUCCUGUGCUACACAUCGUAUGUACCGAAUCGGAAAAAAAGGAGGAAAGGAAAGUAUUAUGUUACGCCGUUCGGAUCUGCACUUCC | -0.752 |
| CCUGUGCUACACAUCGUAUGUACCGAAUCGGUUUUUUGGGGUUUUUUGGGUUUUUUGGGGAAAGUAUUAUGUUACGCCGUUCGGAUCUGC | -0.543 |
| UCCUGUGCUACACAUCGUAUGUACCGAAUCGGGGUUUGGGGAAAAAAAGGGGUUUGGGGAAAGUAUUAUGUUACGCCGUUCGGAUCUGCA | 0.773 |
| AGUCCUGUGCUACACAUCGUAUGUACCGAAUCGGGAAAGGGUUUGGGUUUUUUUGGGAAAGUAUUAUGUUACGCCGUUCGGAUCUGCACU | 0.149 |
| CCUGUGCUACACAUCGUAUGUACCGAAUCGGGUUUUUUUGGGUUUUUUUGGGAAAAAGGGAAAGUAUUAUGUUACGCCGUUCGGAUCUGC | -0.758 |
| GUCCUGUGCUACACAUCGUAUGUACCGAAUCGGGGUUUGGGGAGGGGAAAAAAAGGGGAAAGUAUUAUGUUACGCCGUUCGGAUCUGCAC | 0.271 |
| UGGGAGGUGGAUUUUGUUUGUUUUUUUAGCUCAUUUCCAGGGGUGGGAAUUUUUUUUUAAUAUGUGUCAUGAAUAAAGUUGUUUUUGAAA | 0.39 |

Study 2 — technique: competition protein-binding microarray; molecule type: double-stranded DNA, one strand shown; medium: in vitro; concentration: 2 µM; together with: Cbf1 competitor, 0.05 µM; direction: higher = stronger binding; shared flanks, not repeated: … GTCTTGATTCGCTTGACGCTGCTG
Target: Phosphate system positive regulatory protein PHO4, full length, GST-tagged (PHO4, Saccharomyces cerevisiae, UniProt P07270, residues 1-312)
Setting: whole 60-bp probe, lowest competitor level
Construct (chain): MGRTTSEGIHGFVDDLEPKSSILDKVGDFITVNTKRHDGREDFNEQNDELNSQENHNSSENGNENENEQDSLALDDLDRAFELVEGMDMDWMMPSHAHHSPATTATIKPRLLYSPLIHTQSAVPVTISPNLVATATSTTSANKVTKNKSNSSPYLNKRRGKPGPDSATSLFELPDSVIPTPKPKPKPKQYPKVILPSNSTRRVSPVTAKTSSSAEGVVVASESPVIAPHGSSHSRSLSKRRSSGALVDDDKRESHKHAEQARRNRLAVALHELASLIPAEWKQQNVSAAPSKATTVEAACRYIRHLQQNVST
| Oligonucleotide | fluorescence intensity [a.u.] |
| --- | --- |
| AGTCCCAATACCTCTCACGTTTTGGGGGAATAGTTC | 9120 |
| TGCGCAACAACTTGCATCGTGGGTGTATGTCTAGAA | 11400 |
| AAAGCGGTAATTTGGCGAGTGGGTGCAGATATCTAT | 4180 |
| TCTCTGGCCCGAAACCTCGTGTTGGTACAAATCCTC | 10000 |
| AAAGCGGTAATTTTTCACGTGGTGTCAAATATCTAT | 12400 |
| AACTAGATGTTGTCTATCGTGATGGGAAACCAGAGA | 4050 |
| ATAGCTCAAGTACTGTTCGTGGGTACCTTAAGCCTG | 4540 |
| AAGCTAAGCTCGAAGGACGTGCTAAGACATACGAAT | 7350 |
| CATACCCAACCTTGCCTAGTGGGTGAAGATATTTGT | 4650 |
| TGCGCAACAACTTGGCGCGTGGGTGTATGTCTAGAA | 11600 |
| AGGATTTTCAACCATCATGTGACAGTCGAAGAACGC | 7040 |
| GTCAACCTGCTGCCTGGCGTGCTTTGACTCAGTACA | 6890 |
| GTCTTGTCTCATTGTTGGGTGGGTGTCCCCACTTCA | 5620 |
| AGGGTACCTCTTCTAAACGTGCCGAAGAACACTCGA | 11300 |
| TTCTCATAGAGAATCCACGTGTTGGTCTTTTGGATT | 14900 |
| AGCCCCTATAGTAGCTTCGTGATGGGGTAGAACTTC | 3520 |
| TTCAGCTTGGCTATTTTGTGAACACTGTATAGCCAG | 2590 |
| AAAGCGGTAATTTGCAGTGTGGGTGCAGATATCTAT | 5470 |
| GAAGTCCCTAGCTTCCACGGGATGTTTCAGCATTAA | 5550 |
| GGAGTCAACGCTTTGCACGTGACGGCGGTACATAGT | 15400 |
| AGGCACAACTTTCCGCACGTAGTGTTTTCAGCCCCA | 7350 |
| CGTCCTAGTGATTGTAGAGTGGGTGCCATGAGGAAG | 6670 |
| TATGATCCCTCCCATCACATGGACACTTTTAAGCAA | 7360 |
| CAACACCCTCCAGAGACCGTGCCGAAGTTGTTCGAG | 9710 |
| GCAATGCGATGCAGCCACGTTATATAATGCGTTTAA | 8510 |

Study 3 — technique: RNA Bind-n-Seq; molecule type: RNA; medium: in vitro; concentration: 365 nM; relative to: no-protein control; direction: higher = stronger binding
Target: RNA binding protein fox-1 homolog 2, RRM domain, GST-SBP tag (RBFOX2, Homo sapiens, UniProt O43251-10, residues 100-194)
Setting: natural RNA segment, single round, ends assumed
Shared flanks, not repeated: GGGAGUUCUACAGUCCGACGAUC … UGGAAUUCUCGGGUGCCAA
Target sequence (chain): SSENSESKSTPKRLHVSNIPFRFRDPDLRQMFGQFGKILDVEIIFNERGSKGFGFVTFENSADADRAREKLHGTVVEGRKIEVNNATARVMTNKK
| Oligonucleotide | RBNS enrichment (R) |
| --- | --- |
| CCCACGGAACUUUUUAAUAACACAACACUAAACAUCUAAAGAAUAUAAAACUUGGAAUCUUCUCACCCGUCACGUGGAGCUCCAUCUGUUUCAGCUGUUGAUGUAGUUUG | 0.817 |
| CCAUCAUUGAGACCUUCAUCUACAGUUUCCAAACAGUCAUUGGAAAACGCACGACAGUUACCCAGAAGGUUUUAUUUCUCAGCAGAUUUGUAGAAUGAAGUAUAACGUCA | 1.42 |
| GAGUUCCUUCACGCACUUGGUUCACCACCAUCACUCUUGAGUUUUGGACAAAAGAGGUGGGUAUGCCAGGCACAGUGGCUCACGCCUGUGAUCCCAGCACUUUGGGAGGC | 0.218 |
| CUAGUUUGUGAAGGGAUCUUCCUUUGGACUUUCUCUAAGUUGGGAGAAGAACAUUCUUUUCAAUGGAGCUCAUCUUCUAUCUCUAGGGUCUGUUCAGCCUUUCAUCUAUC | 0.699 |
| CCUAAGCCGGGGGUGCCUGGGGCUGGGGGGCGCUCCUUGCAAUGCCCCUCCAGCCACAGGGCAGUGAGGUGCUGCCUGUGUGAGCCGUCGGGGGAGCGGCCGGCUGUGGG | 0.472 |
| UUGAUUUUACUUCAAGACAUAGCAAGAGAAACAAAAUUUUGUUUUCAAGACAUUUCCACUGCAGUUUCAAGCUGUAGUGGGCAUAUGCUUCAUUUACUUCCAAAGAGGCA | 0.236 |
| UCCUUGAGCCCAGGGACCAUGGAAGUCAGCUAGAAGAGCCCUGAGCAAGGAGCAAGGACUUGGGCUUCUCCACGCUUUGCUCCUGGCUUGUUUGACCUUGACUCAUUCCC | 0.313 |
| UGAGAACAGAGGUCAGACACAGCUGCGUAACAUCCAUCCUGCUACAACUCUUCCACCCCAAACAAAAGGGCUCAGGCUACACACGACCAUGAUUUAUGUUUUCAGGGGAU | 0.446 |
| ACAUAUGUAAUAUUAAUAGUUAUUAUUUACUGGUGCAGAUGGUUGACAUUUUUCCCUAUUUUCCUCACUUUAUGGAAGAGUUAAAACAUUUCUAAACCAGAGGACAAAAG | 0.289 |
| GCAUGCCAGUGAAGCGUUACCAUAGAAGAGCCAGCCGUUUGUGUUCGCUUGGUAGGUGUAAGUAAUAGCAGCCCUUAGCCACGGAGUCUUUAUGUGGUUUAUUCCUGCAA | 6.83 |
| GUAGCCUAAAAGACAAUUUUCCUUGGAACACAUAAGAACUGUGCAGUAGCCGUUUGUGGUUUAAAGCAAACAUGCAAGAUGAACCUGAGGGAUGAUAGAAUACAAAGAAU | 0.291 |
| CCCACACGCCUCACCUCGGUGAGUGGGCAGAGCUGAGCCGCACUGUGUGCCUGGGAGCAGGUUACAACUCUGGUUUGACUUUCAUUUUGUUGAGAAGCUUCUGUUUUAAG | 0.488 |

Study 4 — technique: RNA Bind-n-Seq; molecule type: RNA; medium: in vitro; concentration: 100 nM; relative to: input RNA pool; direction: higher = stronger binding
Target: RING finger protein unkempt homolog, zinc fingers 1-6, SBP tag (UNK, Homo sapiens, UniProt Q9C0B0, residues 30-357)
UniProt Q9C0B0, sequence (30-357, looked up): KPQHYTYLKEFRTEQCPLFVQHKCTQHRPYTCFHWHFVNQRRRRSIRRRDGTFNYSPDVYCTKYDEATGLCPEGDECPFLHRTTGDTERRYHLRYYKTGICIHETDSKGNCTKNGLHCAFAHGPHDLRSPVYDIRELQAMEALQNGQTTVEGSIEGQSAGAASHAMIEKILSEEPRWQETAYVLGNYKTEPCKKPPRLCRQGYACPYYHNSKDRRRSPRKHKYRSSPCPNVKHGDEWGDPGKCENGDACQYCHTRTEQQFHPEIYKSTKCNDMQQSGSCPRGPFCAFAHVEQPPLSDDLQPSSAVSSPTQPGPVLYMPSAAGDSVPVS
Setting: RNA with constant flanks, vertebrate orthologous sites, ends assumed
Shared flanks, not repeated: GGGAGUUCUACAGUCCGACGAUC … CAACAGAGGAUUGAGCAUCA
| Oligonucleotide | bound/input enrichment [ratio] |
| --- | --- |
| CAUUGUACCCUGCUGUAUAAUAAACAAUCUUAGACAUUUAUCAACUGUUGAUACAAAUGUUAGUCCCUAACCACUUUUUAUAUGUUUUAAAUUUUUGAAAUUCAAGUGUGCCUGCCGUAA | 1.57 |
| UUACAGUCAUUGAUGGACUCUAUUUUUUUAUUAUUACUUGGACCUUGGUCGUUUUUAUACUAGCAAAAUGUCUUGUUUUAAUUUGGGGGCUUUUUUUGGGGGGGAGGAGGGAGGGCGUGA | 3.26 |
| UUCACCACUCUUGGGUGCGUGAUUGAGGGUGAAGCAUCCACCAGCACUUCAAGGGGUCCAUAGUAUUUUUUCUUGCUGCCUCAAAGUUCCCAAAGCCUUCGAGCAGAAGUAGCAGUAGAU | 0.995 |
| CUGAACAAAUGCCCAGUUCGGAGCACUCCUUACAGGGGUUCUUUGGCCCCGGCGGUGAAGUGGAUGUAUCCUAUCAGCAGGGCCCGACCAGUCAGAACACGGUGUCCUGCAGUCCUUCCA | 0.239 |
| GUUGUGACCCAUUUAACAUACACAAAAAAUUAGCCAAAAAAAAUUUGCAUGUAAUUGACUUAGAUGAUGCCACUUUUCUGAGUGCUAAAUUUGGAAGACAGCUUGUACCUGGUUGGAAGC | 1.47 |
| AUUCAAACCUGUGGUACCGUGGCCUCAUGUCGAAGGAGUAGAAGUGGACCUAGAGUCUAUUAGAAGAAAAAACAAGGCCAAAAAUGAACAAGAGCACCACGCUGGAGGAGAUUCCCAGAA | 0.305 |
| AUCAUGGUUGCUUUUUACCGCCUCAAUGAGGUAAAGUCUCCCUUGGCAUUUGGUAGUUACAAGAGCCAGUCACACCUAAUAAGUCUUUCCAUGUUUCAUUUCUUUCAUACUCCUAGUCAU | 1.39 |
| GUGCAAGGAGAUUAUUCCAACUAGUGAAUUUAUUAACAGUAAAUUGACAGCAAAGGCAAACAGGCAGCUUCAAGAUCCUUUAGUAAUCAUGACAGGAAACAUCCCAACGUGGCUUACUGA | 0.737 |
| AUGUAGAGAACAAUUUUCAUUGACCCUUUCCACCGUUGUGAAAUUCUCUAGCAAUUUAUUUAGUAUCUUAAUUUUUCUAAUUCAAGCACAGUGUAUUAGUCAUUUUUAGCCCAUAAAUAA | 3.4 |
| UGCUCCGGGACAGCAGUUAGAGUGAGUUCUCGGCUUCUCCCAUGAGGAAAAAAGCCCCAGCAGAUUCCUUACACAUCUGAUGAUACUGUUCUGCUUUUGUUUUCUGUUUUUACAUAGGCA | 0.396 |
| GGAUAUGGCCUUGGAGGAAUCUCUGCCUUGGCCUUGCCUCCCCUCCUUGCCACCAGCCCCUAGGUAUUUUUUUUUAACCACCACUUGAUUCUGGUCGGCACUUCCACCCCCGACCUUUUC | 1.23 |

Excerpt of the above (study 2):
| Oligonucleotide | fluorescence intensity [a.u.] |
| --- | --- |
| CATACCCAACCTTGCCTAGTGGGTGAAGATATTTGT | 4650 |
| TGCGCAACAACTTGGCGCGTGGGTGTATGTCTAGAA | 11600 |
| AGGATTTTCAACCATCATGTGACAGTCGAAGAACGC | 7040 |
| GTCAACCTGCTGCCTGGCGTGCTTTGACTCAGTACA | 6890 |
| GTCTTGTCTCATTGTTGGGTGGGTGTCCCCACTTCA | 5620 |
| AGGGTACCTCTTCTAAACGTGCCGAAGAACACTCGA | 11300 |
| TTCTCATAGAGAATCCACGTGTTGGTCTTTTGGATT | 14900 |
| AGCCCCTATAGTAGCTTCGTGATGGGGTAGAACTTC | 3520 |
| TTCAGCTTGGCTATTTTGTGAACACTGTATAGCCAG | 2590 |
| AAAGCGGTAATTTGCAGTGTGGGTGCAGATATCTAT | 5470 |
